Measurements gathered from unrelated publications.
Each numbered part is a random draw from the data of one study; scales do not carry over between parts.

Sample 1 — technique: RNA Bind-n-Seq; molecule type: RNA; matrix: in vitro; tested at: not given; reference: input RNA pool; direction: higher = stronger binding
Target: RING finger protein unkempt homolog, zinc fingers 1-6, GST-SBP tag (UNK, Homo sapiens, UniProt Q9C0B0, residues 30-357)
Chain of UniProt Q9C0B0 (30-357, looked up): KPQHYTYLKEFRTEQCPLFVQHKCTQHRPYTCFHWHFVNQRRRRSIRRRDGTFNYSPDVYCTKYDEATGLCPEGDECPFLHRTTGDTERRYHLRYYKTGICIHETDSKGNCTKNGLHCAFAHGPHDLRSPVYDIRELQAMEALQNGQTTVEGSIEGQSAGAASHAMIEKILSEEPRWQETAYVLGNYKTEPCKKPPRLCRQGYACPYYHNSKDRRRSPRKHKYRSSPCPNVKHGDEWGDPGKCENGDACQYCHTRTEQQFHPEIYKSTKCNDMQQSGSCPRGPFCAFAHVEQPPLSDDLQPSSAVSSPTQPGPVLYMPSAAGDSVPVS
Setting: RNA with constant flanks, human and mouse sites, ends assumed
`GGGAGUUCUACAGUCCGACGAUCGAAACAUUUAAAUUUAAAGAAGCUGUUGUUUUAGGGAGCACGGACUUCCUAGAAGAUGAUAUAGAAAAAAUUGUAGAAGAACUGGGAAAAGAAUACAAAGGCAAUGCUUAUCAUUUAAUGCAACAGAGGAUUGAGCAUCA` has a bound/input enrichment of 1.46 ratio.
The bound/input enrichment of `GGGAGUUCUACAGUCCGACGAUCAACAGUAGUACAGCUAUUGGGAUCAGAUGUAAAGAUGGUGUUGUGUUUGGGGUAGAAAAACUAGUCCUUUCUAAACUUUAUGAAGAAGGCUCCAAUAAACGUCUUUUUAAUGUUGAUCGACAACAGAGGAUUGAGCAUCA` is reported as 0.458 ratio.
With `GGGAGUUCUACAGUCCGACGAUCUUUAUGCACAUACUUAAAGGACAGAAAUGUCUGGUAAAGUAAUUGUUAAAUAAUGAUAUGUAGCUUUUUAACUUUUUAAAUAAAUAAGAUUUUUUAAUGUGGGUCUCCCUCAGGGUUGUUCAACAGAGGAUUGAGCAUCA` the bound/input enrichment was 17.3 ratio.
`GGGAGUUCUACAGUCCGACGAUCUUUGUACCAGUUAUCAAACUCUGUUUUGAUGGAAUAGAGAUUGAUAUUUUGUUUGCAAGAUUAGCACUGCAGACUAUUCCAGAAGAUUUGGACCUACGAGAUGACAGUCUGCUUAAAAACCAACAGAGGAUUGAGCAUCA` has a bound/input enrichment of 0.181 ratio.
The bound/input enrichment of `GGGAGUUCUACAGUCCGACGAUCGGAAAUGCUGCCUGGCAAGAACAGUUGAAACAGAAGAAAGCUCCAGUUCAUGUAAAACGUUGGUUUGGCUUUCUUGAAGCCCAGCAGGCCUUCCAGUCAGUAGGUACCAAGUGGGAUGUUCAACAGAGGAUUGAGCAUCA` is reported as 0.282 ratio.
For `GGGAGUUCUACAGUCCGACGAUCGUCUUGUAUAGCAAUAUGCUUGGAGAGGAGAAUACUUAUCUCUGGCGCACAUCACUAUAUUUGGCUGCCUCUGCCAGUGCUGAAUUCUUUGCUGACAUUGCCCUGGCUCCUAUGGAAGCUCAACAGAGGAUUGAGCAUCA`, the bound/input enrichment was 0.257 ratio.
The bound/input enrichment of `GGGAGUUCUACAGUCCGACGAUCUAAAACUGUAACAUAUCUCUUAUAUAUUAAAAAAAAAAACCUUUAAAAGUUUUAAAGAGAAAUUGCAUUAAUACAGAUUGAAGUAUUUUAUUCUUUUUUUGACUUGAAAAAUUAUAUUUCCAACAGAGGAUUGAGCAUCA` is reported as 1.06 ratio.

Sample 2 — technique: universal PBM; molecule type: double-stranded DNA, one strand shown; matrix: in vitro; tested at: 600 nM; direction: higher = stronger binding
Target: Sal-like protein 4, full length isoform A (SALL4, Homo sapiens, UniProt Q9UJQ4, residues 1-1053)
Chain of UniProt Q9UJQ4 (whole entry, looked up): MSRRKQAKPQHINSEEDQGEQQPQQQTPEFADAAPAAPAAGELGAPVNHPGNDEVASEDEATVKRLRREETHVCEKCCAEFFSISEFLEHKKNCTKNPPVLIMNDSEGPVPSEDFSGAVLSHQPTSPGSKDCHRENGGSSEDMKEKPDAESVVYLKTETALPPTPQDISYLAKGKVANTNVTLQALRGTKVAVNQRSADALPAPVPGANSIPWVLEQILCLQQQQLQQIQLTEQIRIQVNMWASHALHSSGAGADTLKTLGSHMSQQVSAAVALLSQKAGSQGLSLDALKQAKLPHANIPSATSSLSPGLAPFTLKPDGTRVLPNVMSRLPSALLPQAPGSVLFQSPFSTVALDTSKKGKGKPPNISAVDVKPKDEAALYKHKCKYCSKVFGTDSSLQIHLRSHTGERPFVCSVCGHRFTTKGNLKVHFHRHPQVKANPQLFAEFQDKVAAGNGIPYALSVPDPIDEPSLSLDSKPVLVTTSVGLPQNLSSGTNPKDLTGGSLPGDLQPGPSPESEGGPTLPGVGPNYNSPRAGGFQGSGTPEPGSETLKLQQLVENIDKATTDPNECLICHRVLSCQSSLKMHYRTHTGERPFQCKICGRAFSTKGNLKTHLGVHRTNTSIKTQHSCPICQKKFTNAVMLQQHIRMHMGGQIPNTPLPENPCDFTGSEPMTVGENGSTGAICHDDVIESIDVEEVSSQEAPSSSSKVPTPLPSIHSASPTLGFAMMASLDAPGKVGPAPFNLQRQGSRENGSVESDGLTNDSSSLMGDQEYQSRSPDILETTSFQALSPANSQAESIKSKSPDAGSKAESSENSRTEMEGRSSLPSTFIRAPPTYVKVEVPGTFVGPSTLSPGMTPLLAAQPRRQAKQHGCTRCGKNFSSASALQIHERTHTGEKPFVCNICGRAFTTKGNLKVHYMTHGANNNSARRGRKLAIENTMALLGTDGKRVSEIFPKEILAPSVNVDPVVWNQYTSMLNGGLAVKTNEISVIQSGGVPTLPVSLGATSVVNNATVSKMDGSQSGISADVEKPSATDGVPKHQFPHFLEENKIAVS
Setting: 8-mer, flanks averaged, mean of replicates
The E-score of `ATAGTGAG` is reported as 0.202.
`ATGACAAG` has an E-score of 0.0666.
For `CTAGGCGA`, the E-score was -0.126.
The E-score of `GACTAGCA` is reported as -0.136.
`ATGCCGGC` gave an E-score of -0.171.
`AGTTCCAG` has an E-score of -0.188.
`CGTTAGTC` has an E-score of 0.00211.
With `GCTTGTAC` the E-score was 0.0132.
With `AAGTTAAG` the E-score was -0.0283.

Sample 3 — technique: RNA Bind-n-Seq; molecule type: RNA; matrix: in vitro; tested at: 20 nM; setting: 6-mer, flanks averaged, single round; added: 150 mM KCl; reference: input library; direction: higher = stronger binding
Target: TAR DNA-binding protein 43, full length, His tag (TARDBP, Homo sapiens, UniProt Q13148, residues 1-414)
Under “6-mer enrichment (R)”, `CUCUCC` is recorded as 0.574.
`AACCCG`: “6-mer enrichment (R)” 0.668.
`AUGGGG`: “6-mer enrichment (R)” 4.06.
Under “6-mer enrichment (R)”, `UGCGCC` is recorded as 0.819.
For `UAGAAC`, “6-mer enrichment (R)” read 0.751.
Under “6-mer enrichment (R)”, `AGGCGG` is recorded as 3.73.
For `GUUUUG`, “6-mer enrichment (R)” read 0.872.
For `UCCAGA`, “6-mer enrichment (R)” read 0.657.

Further values, each from its own experiment
For `PhoQ, residues 284 288 289 292 302 303 AGCYAI`, the fold induction was 2.32 (PhoP, residues 12 14 15 18 19 VHSCL (Escherichia coli, UniProt P23836); Sort-seq, refers to: YFP reporter; E. coli; PhoQ-PhoP variant library, added: 10 µM Mg2+; reference: high Mg2+ state, higher = stronger signaling).
